Assay results collected from several papers.
Every numbered part comes from another study and shows a few of its results, in no order. Substitutions count along the parent as printed.
Sequence of UniProt P41143 (whole entry, looked up): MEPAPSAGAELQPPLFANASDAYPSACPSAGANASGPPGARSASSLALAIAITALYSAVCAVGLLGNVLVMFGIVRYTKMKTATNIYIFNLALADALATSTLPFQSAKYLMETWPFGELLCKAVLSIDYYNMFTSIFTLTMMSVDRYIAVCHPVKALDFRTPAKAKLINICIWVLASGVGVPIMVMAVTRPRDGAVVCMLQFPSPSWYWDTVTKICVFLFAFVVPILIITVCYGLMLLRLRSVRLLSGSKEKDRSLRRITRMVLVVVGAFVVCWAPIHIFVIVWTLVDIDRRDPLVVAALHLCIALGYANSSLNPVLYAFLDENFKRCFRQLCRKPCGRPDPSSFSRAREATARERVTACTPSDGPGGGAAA
Sequence of UniProt Q96NX5 (whole entry, looked up): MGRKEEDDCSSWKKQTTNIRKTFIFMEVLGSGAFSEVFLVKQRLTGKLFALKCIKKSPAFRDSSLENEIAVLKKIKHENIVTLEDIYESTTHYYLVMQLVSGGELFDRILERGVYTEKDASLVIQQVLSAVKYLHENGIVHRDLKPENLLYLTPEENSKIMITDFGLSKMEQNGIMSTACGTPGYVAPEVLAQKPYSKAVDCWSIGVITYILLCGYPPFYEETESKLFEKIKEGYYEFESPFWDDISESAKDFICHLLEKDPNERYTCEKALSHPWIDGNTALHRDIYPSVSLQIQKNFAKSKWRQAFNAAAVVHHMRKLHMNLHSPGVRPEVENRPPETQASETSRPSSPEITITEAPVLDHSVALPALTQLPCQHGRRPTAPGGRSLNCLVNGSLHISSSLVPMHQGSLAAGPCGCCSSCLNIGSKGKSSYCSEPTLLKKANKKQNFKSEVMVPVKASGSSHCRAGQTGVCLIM
Sequence of UniProt O15294 (whole entry, looked up): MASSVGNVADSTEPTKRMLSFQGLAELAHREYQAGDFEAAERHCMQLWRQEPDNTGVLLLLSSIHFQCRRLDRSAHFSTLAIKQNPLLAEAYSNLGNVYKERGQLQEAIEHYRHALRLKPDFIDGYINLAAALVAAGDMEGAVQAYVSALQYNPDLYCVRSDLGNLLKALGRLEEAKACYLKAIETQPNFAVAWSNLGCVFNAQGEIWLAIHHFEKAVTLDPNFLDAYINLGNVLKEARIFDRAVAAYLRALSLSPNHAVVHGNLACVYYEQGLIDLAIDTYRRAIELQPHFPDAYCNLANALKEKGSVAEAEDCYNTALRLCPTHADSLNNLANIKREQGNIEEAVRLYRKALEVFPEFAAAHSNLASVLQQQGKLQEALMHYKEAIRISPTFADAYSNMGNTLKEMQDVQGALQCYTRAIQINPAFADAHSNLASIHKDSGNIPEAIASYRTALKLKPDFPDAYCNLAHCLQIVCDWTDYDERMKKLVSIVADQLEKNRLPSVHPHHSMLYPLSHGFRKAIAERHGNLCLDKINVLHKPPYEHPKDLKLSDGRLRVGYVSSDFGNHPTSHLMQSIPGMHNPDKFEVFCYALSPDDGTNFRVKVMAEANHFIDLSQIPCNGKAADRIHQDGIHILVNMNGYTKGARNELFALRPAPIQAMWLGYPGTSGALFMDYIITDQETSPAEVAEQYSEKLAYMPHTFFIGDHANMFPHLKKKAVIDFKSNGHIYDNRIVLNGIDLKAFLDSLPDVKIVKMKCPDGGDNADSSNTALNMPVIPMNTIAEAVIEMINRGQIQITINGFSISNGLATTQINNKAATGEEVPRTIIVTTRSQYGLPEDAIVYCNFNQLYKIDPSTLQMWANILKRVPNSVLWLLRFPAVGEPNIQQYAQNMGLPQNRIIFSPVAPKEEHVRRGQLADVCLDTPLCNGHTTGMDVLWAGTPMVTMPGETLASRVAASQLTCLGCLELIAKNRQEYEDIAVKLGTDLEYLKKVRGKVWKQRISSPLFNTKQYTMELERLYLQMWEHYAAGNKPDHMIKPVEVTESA

Block 1
Target: vanadate, free oxyanion
Method: microfluidic competitive inhibition
Medium: in vitro, cell-free expressed
Tested at: not given
Setting: derived from inhibition constants, unchanged parent 676 nM
Direction: lower = stronger binding
Quantity: oxyanion analog dissociation constant
Starting sequence: PafA, mature enzyme, eGFP fusion (Elizabethkingia meningoseptica, UniProt Q9KJX5); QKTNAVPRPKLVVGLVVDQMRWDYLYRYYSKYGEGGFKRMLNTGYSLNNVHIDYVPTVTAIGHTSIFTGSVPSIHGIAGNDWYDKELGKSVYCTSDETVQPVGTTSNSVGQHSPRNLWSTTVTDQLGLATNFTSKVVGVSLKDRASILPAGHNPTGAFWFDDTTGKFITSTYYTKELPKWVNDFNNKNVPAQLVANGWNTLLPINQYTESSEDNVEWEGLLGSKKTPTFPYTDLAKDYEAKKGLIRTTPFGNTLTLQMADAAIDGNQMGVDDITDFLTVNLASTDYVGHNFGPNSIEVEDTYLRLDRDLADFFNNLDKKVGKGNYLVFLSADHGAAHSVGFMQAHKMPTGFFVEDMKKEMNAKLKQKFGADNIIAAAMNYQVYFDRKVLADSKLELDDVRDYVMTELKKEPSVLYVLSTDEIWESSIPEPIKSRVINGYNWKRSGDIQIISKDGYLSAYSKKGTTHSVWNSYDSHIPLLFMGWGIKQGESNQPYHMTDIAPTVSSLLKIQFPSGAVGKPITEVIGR
R434G: 1.42 µM
Y45V: 655 nM
D183G: 657 nM
E297G: 815 nM
I449G: 611 nM
Y459G: 598 nM
E176V: 656 nM
Q1V: 842 nM

Block 2
Target: CCND3, cyclin fold, Cln2 fusion (human)
Method: yeast growth competition, sequencing
Medium: yeast
Setting: weak parent motif
Baseline: not given
Direction: higher = stronger binding
Quantity: normalised enrichment score
Starting sequence: viral docking peptide; KGVKRKLFAEDSS
KGVKRKLFALDSS [E10L]: 0.693
KGVKRKHFAEDSS [L7H]: 0.16
KGVKRKLFAEHSS [D11H]: 0.00862
KGVKRKLFAEDSA [S13A]: 0.211
KGVVRKLFAEDSS [K4V]: -0.418
KGVKRKLFACDSS [E10C]: 0.0233
KGVKRKLFASDSS [E10S]: 0.546
KGVKRKTFAEDSS [L7T]: 0.325

Mixed results
O=C(NCc1ncc(C(F)(F)F)cc1Cl)c1ccc2c(c1)C1(CCS(=O)(=O)CC1)[C@H](C1CC1)N2S(=O)(=O)c1ccc(F)cc1
inhibition (OPRD1 (Homo sapiens, UniProt P41143); ligand displacement; 10 µM): -0.34%

TAPFYPPAYEIQVFK
enrichment fold change (OGT (Homo sapiens, UniProt O15294); binding, phage display NGS; peptide; concentration not given, added: OGT 1 µg; baseline: input library): 1.25

Cc1cc(C)c(-n2ccn3nc(-c4cccnc4)cc23)cc1NC(=O)c1cc(C#N)cc(S(F)(F)(F)(F)F)c1
remaining binding (pknB (Mycobacterium tuberculosis, UniProt P9WI81); cell-free assay, competition with immobilised ligand; 0.1 µM): 62.5%

COc1ccc2c(c1)/C(=C/c1cnc[nH]1)C(=O)N2
remaining activity (CAMK1G (Homo sapiens, UniProt Q96NX5); enzyme activity, inhibitor; 0.5 µM; baseline: control): 95.6%

Some of these lines once more (block 2):
KGVKRKLFAEDSA [S13A]: 0.211
KGVKRKLFACDSS [E10C]: 0.0233
KGVKRKLFALDSS [E10L]: 0.693
